Assay results from different studies.
Numbered parts are unrelated; each lists some results of a single study.

Study 1
Target: Prothrombin, mature alpha-thrombin (F2, Homo sapiens, UniProt P00734)
Method: aptamer microarray, sandwich
Form: DNA with 2'F-ANA
Matrix: in vitro
Tested at: 200 nM
Notes: whole 15-mer aptamer, many near background
With: Cy3 exosite-II aptamer, 400 nM
Direction: higher = stronger binding
Quantity: mean fluorescence intensity
Oligonucleotide: GGTTGGTGTGGTTGG
Modification = 2'F-ANA at 1 7 9 11 14; result = 56.2 a.u.
Modification = 2'F-ANA at 2 4 6 9 12 13 15; result = 299 a.u.
Modification = 2'F-ANA at 2 3 7 8 9 10 11 12; result = 379 a.u.
Modification = 2'F-ANA at 1 4 6 7 8 10 11 12 13; result = 52.2 a.u.
Modification = 2'F-ANA at 4 5 6 7 10 13; result = 79.6 a.u.
Modification = 2'F-ANA at 1 4 5 8 9 12; result = 108 a.u.
Modification = 2'F-ANA at 1 2 3 5 6 7 8 10 11 15; result = 54.6 a.u.
Modification = 2'F-ANA at 2 3 4 6 7 8 9 11 13 14 15; result = 184 a.u.
Modification = 2'F-ANA at 3 4 5 6 9 10 11 13; result = 60.5 a.u.
Modification = 2'F-ANA at 2 4 7 10 11 12 14; result = 63.5 a.u.
Modification = 2'F-ANA at 2 3 4 6 7 9 10 15; result = 207 a.u.
Modification = 2'F-ANA at 2 4 6 7 8 10 11 12 13 14 15; result = 80.8 a.u.
Modification = 2'F-ANA at 1 4 6 7 8 11 12 14 15; result = 57.1 a.u.
Modification = 2'F-ANA at 1 3 7 13 15; result = 275 a.u.
Modification = 2'F-ANA at 3 4 5 7 9 10 14; result = 49.8 a.u.
Modification = 2'F-ANA at 1 3 5 6 8 9 11 12 13; result = 90.9 a.u.
Modification = 2'F-ANA at 1 2 4 6 8 9 11; result = 104 a.u.
Modification = 2'F-ANA at 1 3 6 7 11 12 14; result = 102 a.u.
Modification = 2'F-ANA at 3 4 5 11 12; result = 198 a.u.
Modification = 2'F-ANA at 1 2 4 6 10 12 15; result = 54.4 a.u.

Study 2
Target: Centromere-binding protein 1, full length, N-terminal tag (CBF1, Saccharomyces cerevisiae, UniProt P17106, residues 1-351)
Sequence of UniProt P17106 (whole entry, looked up): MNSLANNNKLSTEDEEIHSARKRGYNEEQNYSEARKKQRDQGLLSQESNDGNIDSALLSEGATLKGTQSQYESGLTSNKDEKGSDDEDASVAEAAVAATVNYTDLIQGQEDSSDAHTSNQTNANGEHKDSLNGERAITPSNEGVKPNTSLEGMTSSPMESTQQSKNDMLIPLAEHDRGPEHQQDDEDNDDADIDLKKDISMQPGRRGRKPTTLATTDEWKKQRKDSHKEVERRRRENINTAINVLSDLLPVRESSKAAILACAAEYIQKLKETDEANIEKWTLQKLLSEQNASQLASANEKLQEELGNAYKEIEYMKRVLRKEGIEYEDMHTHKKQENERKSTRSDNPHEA
Method: protein-binding microarray
Form: double-stranded DNA, one strand shown
Matrix: in vitro
Tested at: 0.8 µM
Notes: whole 60-bp probe, no competitor
Direction: higher = stronger binding
Quantity: fluorescence intensity
All sequences stand within: … GTCTTGATTCGCTTGACGCTGCTG
Oligonucleotide = CTAGAACTCTTTGATCATGTGATATGAATATGTTTC; result = 8640 a.u.
Oligonucleotide = CTATATCGTGCCGTCATCACCATCGATTTGAATTTC; result = 540 a.u.
Oligonucleotide = CTAGCGTTATATTTACATGTGGTATATCCGGATTTC; result = 637 a.u.
Oligonucleotide = CTAATCAGCCACGGCCCCGTGTAAGCCGTAAAGTTC; result = 540 a.u.
Oligonucleotide = CTATAGAGTTTCATTCACATGAATAATCTGTTATTC; result = 576 a.u.
Oligonucleotide = CTATTTTCTATAAGTAACATCAGCCCATCACCCTTC; result = 615 a.u.
Oligonucleotide = CTAAGCTTTGTTTCACTCGTGCCCAGGATAATTTTC; result = 613 a.u.
Oligonucleotide = CTATTAGTAACGCATAACGTGTTATCTGCGACATTC; result = 593 a.u.
Oligonucleotide = CTAGTATTGATAATTAACGTGTCTATGTGATGCTTC; result = 539 a.u.
Oligonucleotide = CTAATGGAGAGAGGCCACGTTGTTAGGGGAGTATTC; result = 497 a.u.
Oligonucleotide = GAAGCATGACCGTGTATGGTGACATATAAATGGTAG; result = 805 a.u.
Oligonucleotide = GAAATACCGCCTTCTCACGTGGTACAGGCACAATAG; result = 4590 a.u.
Oligonucleotide = CTATCGAGAATTCGTGATTCAATGTTCATTATTTTC; result = 505 a.u.
Oligonucleotide = TGTACGAAGCTATGGCATGCGCATATAGTAGTTAGG; result = 531 a.u.
Oligonucleotide = CTAAAAATAAAACCTCATATGATTTACTTTATTTTC; result = 514 a.u.
Oligonucleotide = GAAAGTATATAGCACCACGAGTGAGTTAAATTCTAG; result = 586 a.u.
Oligonucleotide = CTATCTAGAAAAATTCACATGCTGATTCATTTATTC; result = 650 a.u.
Oligonucleotide = CTAACGGATATACGATATGTGACCAGCCGGCAATTC; result = 551 a.u.
Oligonucleotide = CTAGTCACGGTCCACCACCAATTGTGGCCTTGTTTC; result = 642 a.u.
Oligonucleotide = GAATTTGGATAATTTCACGAGGGGAAATGGACATAG; result = 602 a.u.
Oligonucleotide = CTATCTCAGATGACTCAGGTGTGCTCTTTTCAATTC; result = 555 a.u.
Oligonucleotide = CTACGATTTGGTAATGCCGTGATGCAACCTCGATTC; result = 550 a.u.
Oligonucleotide = CTAGATTCGCAGGATGTCACGGTAACCAAAGTGTTC; result = 669 a.u.
Oligonucleotide = GAAGTTTTACCCTTCCATGTGGGTCAATTGACTTAG; result = 551 a.u.
Oligonucleotide = CTAAAGGTTTGACAGCACGACTATGCAGTTTTCTTC; result = 505 a.u.

Study 3
Target: RNA binding protein fox-1 homolog 2, RRM domain, GST-SBP tag (RBFOX2, Homo sapiens, UniProt O43251-10, residues 100-194)
Method: RNA Bind-n-Seq
Form: RNA
Matrix: in vitro
Tested at: 365 nM
Notes: natural RNA segment, single round, ends assumed
Relative to: no-protein control
Direction: higher = stronger binding
Quantity: RBNS enrichment (R)
All sequences stand within: GGGAGUUCUACAGUCCGACGAUC … UGGAAUUCUCGGGUGCCAA
Target sequence (chain): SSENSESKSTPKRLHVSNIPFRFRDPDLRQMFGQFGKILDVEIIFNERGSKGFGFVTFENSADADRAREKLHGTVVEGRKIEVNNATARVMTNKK
Oligonucleotide = GGUGGCCUGGUCCGCGGAGGGUGCACCUGCCCUCCACAGUGGGAGCUGCAUGGGCCUCCACACCACCUUGGGAACCCCAUGGCACUGCCCUUCAGGGAAGCCGACCAGCC; result = 0.547
Oligonucleotide = AUUUUUAUAUAUAAAUAUUAUAUAAAUAAUGUAUAAAACAUUAAAAGUUAACUAUGUAAGAUAUUAUUUCUGAAACAAUUUAGCUAUAUCCACUAUGAUUAUAAACUGUG; result = 1.67
Oligonucleotide = GUGCUUGCCCUUGGAAUUGUCUCUAAAUGCAUCAAGCAUACAAUAAAAAAAACUGAAAUUAACAUCCGUGGAGUGGCCUCUUCUGUUUUGUGUCUCGUGAAUAAACGUGG; result = 1.57
Oligonucleotide = GGACCACAGGCCUGUACCACCAUGGCCAGCUUUAGAGAGUAAAACAUUUUAAUUUGUUCUUGAUUUGUAUGAUGUUGGGGGCGUUAGCAUUACGUGUUGAAUAUUUUGAG; result = 0.785
Oligonucleotide = CAGCCCAGAGACACAGGAGGCUUCAGGGACAGUGCCCUACUCUAGAAACACCUGCCACUCUAGAUAGUUAGUGUGAGGGAUCCAGGCUUGUGUGAGGGGAAUAAUGUGGA; result = 2.24
Oligonucleotide = UUUGAAAUGAUGAUAAUCCUAAUUAUAUAAAAAUAUAUAUAUAAACACACAUAUAUAUAGUGAUUUCUAAAGAUUUGUUUACUUUUGUGUUUUGUUUUACUGUACUAAGA; result = 1.4
Oligonucleotide = AGGGUAAUGAGGCAAAUGUACUAAAAUGAAUGAUAUAAAACAGUCUCUUCAUUUCUUGAGGUUGGUAAAAUUAUCGAACAAAGUCCUAAUAUGCCCAAAACUCAGAUCUU; result = 0.407
Oligonucleotide = CCUGACUGGGCUAAUGUGACACAUAUUGAGACUUAGGAAGAGCCACAAGACCACACACACAGCCCUUACCCUCCUCAGGACUACCGAACCUUCUGGCACACCUUGUACAG; result = 0.523
Oligonucleotide = AACUCCUGGAUGGUAACCAUCUCUGGAGUGCAGCGCUUGCUGCAGUGGAAAUGAUCAGGAAUACUGACCGUGUUUCUCUUGCCUCCGAGGUUCUUGGGCACACUCUAUAG; result = 0.254
Oligonucleotide = UUCCCACAAGUCAGGGGUCCAGAUAAAAUGAGGGUUAUCAGCUAACUGAUAUGCUAUCAUUGAGGUUCAUCAAUGAAUUUGUACAUUUCUAGUUCCCUUUGGUGAAGGGA; result = 0.24
Oligonucleotide = GCCAUUUGCACUCCAGCCUGGGCAACAAGAGCGAAAUUCCAUCUCAAAAAAAAAAGGUGGGUAAAGGGCCAUGAGCCCAAACCACUAGGUUGUUCACCUUUUCAUCUGAA; result = 0.293
Oligonucleotide = ACAAAUAGUCUAUCAACCCCAGACACUGGUUUGAAGAAUGUUAAGACUUGACAGUGGAACUACAUUAGUACACAGCACCAGAAUGUAUAUUAAGGUGUGGCUUUAGGAGC; result = 1.52

Study 4
Target: Histone acetyltransferase KAT6A, winged helix 2, GST fusion (KAT6A, Homo sapiens, UniProt Q92794, residues 85-181)
Method: protein binding microarray
Form: double-stranded DNA, one strand shown
Matrix: in vitro
Tested at: not given
Notes: 8-mer, flanks averaged, mean of 2 arrays, mostly near background
Relative to: not given
Direction: higher = stronger binding
Quantity: E-score
Residues (chain): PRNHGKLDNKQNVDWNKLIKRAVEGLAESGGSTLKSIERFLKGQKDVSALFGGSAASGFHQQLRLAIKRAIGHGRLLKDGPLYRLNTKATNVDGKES
Oligonucleotide = CCCCGCCG; result = 0.203
Oligonucleotide = ATAATCTC; result = 0.0137
Oligonucleotide = AGGAGCGG; result = -0.0925
Oligonucleotide = GAACCCAC; result = 0.2
Oligonucleotide = AGTCTTTA; result = -0.157
Oligonucleotide = CCACATGG; result = -0.0384
Oligonucleotide = ACATCCCT; result = 0.0741
Oligonucleotide = TAACTTCA; result = 0.0417
Oligonucleotide = ACACCGGG; result = 0.0248
Oligonucleotide = ACGGGAGG; result = 0.0604
Oligonucleotide = CGCTGATA; result = 0.0479
Oligonucleotide = AGCTACTG; result = 0.0713
Oligonucleotide = AACCGCTG; result = -0.168
Oligonucleotide = GAATGCAA; result = 0.0493
Oligonucleotide = AAAATTAT; result = 0.134
Oligonucleotide = CACGGCAC; result = 0.0139
Oligonucleotide = CGAACCAC; result = -0.0756
Oligonucleotide = ATGACAGG; result = 0.0114
Oligonucleotide = GCAGATAC; result = -0.026
Oligonucleotide = CGCACAGA; result = -0.000785
Oligonucleotide = ACGTTGAC; result = -0.156
Oligonucleotide = AGATGGCT; result = -0.0303
Oligonucleotide = CAGTGAAG; result = -0.0146
Oligonucleotide = CAGGGAGC; result = -0.0209
Oligonucleotide = CCGAGATA; result = 0.188

Repeated from above (study 2):
Oligonucleotide = CTATCTCAGATGACTCAGGTGTGCTCTTTTCAATTC; result = 555 a.u.
Oligonucleotide = CTACGATTTGGTAATGCCGTGATGCAACCTCGATTC; result = 550 a.u.
Oligonucleotide = CTAATCAGCCACGGCCCCGTGTAAGCCGTAAAGTTC; result = 540 a.u.
Oligonucleotide = TGTACGAAGCTATGGCATGCGCATATAGTAGTTAGG; result = 531 a.u.
Oligonucleotide = CTAGAACTCTTTGATCATGTGATATGAATATGTTTC; result = 8640 a.u.
Oligonucleotide = CTAGATTCGCAGGATGTCACGGTAACCAAAGTGTTC; result = 669 a.u.
Oligonucleotide = CTATAGAGTTTCATTCACATGAATAATCTGTTATTC; result = 576 a.u.
